# Measured values collected from several papers.
# Parts stem from different laboratories: compare values within a part only.

# Study 1 — technique: protein-binding microarray; form: double-stranded DNA, one strand shown; medium: in vitro; concentration: not given; direction: higher = stronger binding
# Target: Protein C-ets-1 (ETS1, Homo sapiens, UniProt P14921, residues 1-441, K379A, full length assumed)
# Setting: k-mer, scored over probes, only values ≥0.25
# Target sequence (chain): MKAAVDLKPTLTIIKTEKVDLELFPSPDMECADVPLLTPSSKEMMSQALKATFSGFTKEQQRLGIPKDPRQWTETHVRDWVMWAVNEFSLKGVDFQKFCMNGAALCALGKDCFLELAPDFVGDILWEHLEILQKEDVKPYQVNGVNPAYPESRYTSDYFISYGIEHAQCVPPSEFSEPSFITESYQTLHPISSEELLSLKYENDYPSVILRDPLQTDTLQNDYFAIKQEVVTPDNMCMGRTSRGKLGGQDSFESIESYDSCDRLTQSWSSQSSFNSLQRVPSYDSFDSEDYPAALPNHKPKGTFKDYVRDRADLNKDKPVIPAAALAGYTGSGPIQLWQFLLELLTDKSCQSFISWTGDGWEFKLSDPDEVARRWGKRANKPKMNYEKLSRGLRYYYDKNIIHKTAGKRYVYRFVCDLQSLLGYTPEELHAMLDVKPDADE
Strand,E-score
ACCGGGGA,0.385
CGGGGTAA,0.253
ATACTACG,0.272
AGCGGAAG,0.311

# Study 2 — technique: protein-binding microarray; form: double-stranded DNA, one strand shown; medium: in vitro; concentration: 0.8 µM; setting: whole 60-bp probe, no competitor; direction: higher = stronger binding
# Target: Centromere-binding protein 1, full length, N-terminal tag (CBF1, Saccharomyces cerevisiae, UniProt P17106, residues 1-351)
# UniProt P17106, sequence (whole entry, looked up): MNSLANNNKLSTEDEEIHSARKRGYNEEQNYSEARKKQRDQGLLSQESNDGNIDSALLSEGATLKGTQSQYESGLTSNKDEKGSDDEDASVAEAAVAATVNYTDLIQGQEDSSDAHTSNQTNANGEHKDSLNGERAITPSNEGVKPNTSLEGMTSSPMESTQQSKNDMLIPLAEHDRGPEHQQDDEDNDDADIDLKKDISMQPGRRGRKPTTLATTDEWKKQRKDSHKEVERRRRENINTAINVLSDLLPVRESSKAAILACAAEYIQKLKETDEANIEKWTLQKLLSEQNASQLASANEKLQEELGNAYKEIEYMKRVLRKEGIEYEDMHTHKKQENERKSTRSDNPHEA
Strand,fluorescence intensity [a.u.]
CCTAACTACTATAAAAACACGGGATAGCTTCGTACAGTCTTGATTCGCTTGACGCTGCTG,661
TGTACGAAGCTATGAATCGTGATTATAGTAGTTAGGGTCTTGATTCGCTTGACGCTGCTG,593
CTAATAACACTTATCCACGCAACAGTAATGTGGTTCGTCTTGATTCGCTTGACGCTGCTG,535

# Study 3 — technique: RNA Bind-n-Seq; form: RNA; medium: in vitro; concentration: 365 nM; relative to: no-protein control; direction: higher = stronger binding
# Target: RNA binding protein fox-1 homolog 2, RRM domain, GST-SBP tag (RBFOX2, Homo sapiens, UniProt O43251-10, residues 100-194)
# Setting: natural RNA segment, single round, ends assumed
# Residues (chain): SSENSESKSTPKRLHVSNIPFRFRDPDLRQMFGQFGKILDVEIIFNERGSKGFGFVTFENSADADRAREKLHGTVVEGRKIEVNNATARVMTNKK
Strand,RBNS enrichment (R)
GGGAGUUCUACAGUCCGACGAUCUCCUAACUAAAGAGAUGGGAGUUCACCUGAGGGCAAGAAGUACCCAGGAUGCCCAAACAGCCGCACAGGUGUCCUGUGCUUCCUGUGAGACUUCCUGGGGGAAAUAUACAUGGAAUUCUCGGGUGCCAA,0.409
GGGAGUUCUACAGUCCGACGAUCCAACUUCAGAAAUCUUGAAGGCAGGCGCAAACGGGCAUAAAUUCCAGGGACCACUGGGUGAGAGAGGAAUAAGGCCCAGAGCGAGGAAAGGAUUUUACCAAAGCAUCAAUUGGAAUUCUCGGGUGCCAA,2.43
GGGAGUUCUACAGUCCGACGAUCGAAGAGUUGGGGCACAGCCAGUUCUGAAUGUUGGUGGAGGGUGUAGUGGCUUUUUGGCUCAGCAUCCAGAAACACCAAACCAGGCUGGCUAAACAAGUGGCCGCGUGUAAUGGAAUUCUCGGGUGCCAA,0.314
GGGAGUUCUACAGUCCGACGAUCGCGGUUACGCACAGAGGCAAGCAGCUAGAGUCCGGGAUCCCCAGCCUACUGCCUCUCCAGCACUUCUCUCUUCAAGCGGCGACCCCCUACCCUCCCAGCGAGUUGCGCUGUGGAAUUCUCGGGUGCCAA,0.516

# Mixed results
Substance,target,assay,system,conditions,scale,endpoint,result
"PhoQ, residues 284 288 289 292 302 303 SMMNNA","PhoP, residues 12 14 15 18 19 NMSFL (Escherichia coli, UniProt P23836)","Sort-seq, refers to: YFP reporter",E. coli,"PhoQ-PhoP variant library, with: 10 µM Mg2+","relative to: high Mg2+ state, higher = stronger signaling",fold induction,11.3

# For quick reference, copied from above (study 1):
Strand,E-score
CGGGGTAA,0.253
ATACTACG,0.272
